Published values from different studies.
Each numbered part is a random draw from the data of one study; scales do not carry over between parts.

Set 1
Target: RNA binding protein fox-1 homolog 2, RRM domain, GST-SBP tag (RBFOX2, Homo sapiens, UniProt O43251-10, residues 100-194)
Technique: RNA Bind-n-Seq
Molecule type: RNA
Sample: in vitro
Tested at: 365 nM
Notes: natural RNA segment, single round, ends assumed
Reference: no-protein control
Reading: higher = stronger binding
Target sequence (chain): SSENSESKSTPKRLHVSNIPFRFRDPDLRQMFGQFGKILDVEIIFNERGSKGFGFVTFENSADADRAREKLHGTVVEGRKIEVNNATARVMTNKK
`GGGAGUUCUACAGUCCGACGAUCAAGAUCUCUCAAAUCUUGGAUUAUAAUUUUAUUAGAGUUUUGUAAUAAAAUUUAUUUUAUAACAAGAGCAAGGCGUAUACUAUUUUUCAGAAGACCAUUGGAUGGGCCAAUGGAAUUCUCGGGUGCCAA` — result for “RBNS enrichment (R)”: 0.534.
Under “RBNS enrichment (R)”, `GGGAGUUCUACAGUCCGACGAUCAAGAACAUAUUUAUAAUAAAAUCACUGUAGAAGGAUUUUUAAGAUGUUAGUGAAUUCUGUUUCUUUUCAUUCUCGGAAAUGGCAGGAAGCAGCUCCAGUCUCUGAUUUCCUGGAAUUCUCGGGUGCCAA` is recorded as 0.458.
Under “RBNS enrichment (R)”, `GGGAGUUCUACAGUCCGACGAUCUCUUCAAGAUUUAGAGUGGGUUAACCAGGUCAUUACAUCUUAAUUUAAUAACAAGCAUUACUGUAGAGUGAUUGUGUAUAGAUCUGUUAGCUGUCAGGGUGUGUUUUUUUUGGAAUUCUCGGGUGCCAA` is recorded as 1.
For `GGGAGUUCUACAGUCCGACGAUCCUUAUUCAUCUGAGCCGUCUCCACAGUCCCAAUGCCUCUGCUUUUUGUUUUACUUUUGUAGCAUAAGGUUUUUGCUUUUGCUUUGCCUUAAGAGUUCCCUAGGGAGUUACUGGAAUUCUCGGGUGCCAA`, “RBNS enrichment (R)” read 0.51.
Under “RBNS enrichment (R)”, `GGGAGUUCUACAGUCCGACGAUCUUUCUUGUGAUGGACGUGCACUACGAAGUGAGAUGGAGUCCUGCUCCGUGCAGGAGGCCCUUCAUUAUUGCUGCAGAAGACAGAAGCCUGGCUGAGUCACUCUCCACGUCUGGAAUUCUCGGGUGCCAA` is recorded as 0.316.
Under “RBNS enrichment (R)”, `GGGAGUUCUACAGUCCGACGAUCUAUCCUGACUGACUCAACCCAGCAGAGCAUAAAUUGACUUGAGAGCCUUACCUUUGAUGUCUGAAAUGAAACCCCCUUCUCCAAAGGCAAAAUUCGGAGACUUUGAUCUUUGGAAUUCUCGGGUGCCAA` is recorded as 0.43.
`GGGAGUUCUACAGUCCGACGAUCGCUCCCAUUCCAAACUGUUAGUCCCCAACCUUGUGGUCACAUCAGAGGUCAACAGCAGAACAGAGGCAGGUCAGGGUUGUCCGCUCUGAUUAGCAGAACGACAGCCCCUUUGGAAUUCUCGGGUGCCAA`: “RBNS enrichment (R)” 0.306.
`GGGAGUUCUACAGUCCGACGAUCGGCUGUCUCAGCACAAUACUCGACAUAACUGCAGAGCUGAUGUGGCUCAGGCACCCUGGUUUUAAUCCCUUGAGGAUCUGGCAAUUGGCUUACGUAAAGAAAGGGUCACCUGGAAUUCUCGGGUGCCAA`: “RBNS enrichment (R)” 0.367.
For `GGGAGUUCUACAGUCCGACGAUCUAUGCGGUCUGAAUGCAUGCAUUCAUGAGUCCAUGUGGCCAAGUCAGCCUGUGUGCUACUGAACUGUCGAAGGAAAUAGCCGCUCUGAUAGGUAGAUGUGAGUAAAAAGAUGGAAUUCUCGGGUGCCAA`, “RBNS enrichment (R)” read 0.924.
For `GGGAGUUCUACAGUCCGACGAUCUUUUUUUUUUUUUUAAACAGGGAUGUCUGUUGAAAUAAAACAUUGAGUGUGACAGAUGCUGCCUACAGGUGUCUGGAUCUCAGAGUUGAGCUUGUGCAGAGGGCCCUGCCUGGAAUUCUCGGGUGCCAA`, “RBNS enrichment (R)” read 0.41.
`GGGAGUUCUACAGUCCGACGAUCUAUUUAUUUGUAUUGGGUGAUGAUUGAUUCUUUCGACCUAACAUUUUGGGUUUUAACCAAAUAACCGGUCCAGGAGUGAGCAGCUCCGUUCUGUCAGAUGCUACUCCAAAUGGAAUUCUCGGGUGCCAA`: “RBNS enrichment (R)” 0.401.
For `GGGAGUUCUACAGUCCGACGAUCAAAUGAGAAGACGUGUUUUUUUCCUUCACCGAUGCUCCAUCCUCGUAUUUCUUUUUCCUUGUAAAUGUAAUCAGAUGCCAUUUUAUAUGUGGACGUAUUUAUACUGGCCAUGGAAUUCUCGGGUGCCAA`, “RBNS enrichment (R)” read 0.296.

Set 2
Target: PABPC1L2, full length, GST fusion (mouse, UniProt A0ABA7IW68)
Technique: RNAcompete
Molecule type: RNA
Sample: in vitro
Tested at: 20 nM
Notes: 7-mer, probes averaged, single round
Reference: mean of 7-mers
Reading: higher = stronger binding
Construct (chain): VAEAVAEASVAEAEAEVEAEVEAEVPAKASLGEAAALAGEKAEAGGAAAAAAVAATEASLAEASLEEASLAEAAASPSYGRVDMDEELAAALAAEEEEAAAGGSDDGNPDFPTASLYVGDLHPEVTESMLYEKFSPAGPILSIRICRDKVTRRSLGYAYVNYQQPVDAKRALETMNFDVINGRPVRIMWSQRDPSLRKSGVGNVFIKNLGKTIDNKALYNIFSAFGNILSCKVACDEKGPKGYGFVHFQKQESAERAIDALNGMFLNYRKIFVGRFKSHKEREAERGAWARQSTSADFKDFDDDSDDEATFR
The 7-mer Z-score of `ACUCCAG` is reported as -0.0899.
The 7-mer Z-score of `GUCUUUA` is reported as -0.148.
`GCGGAUU` has a 7-mer Z-score of -0.0156.
The 7-mer Z-score of `GCACCCG` is reported as -0.195.
With `CCUAAGU` the 7-mer Z-score was -0.322.
`UUCCUAC` gave a 7-mer Z-score of -0.273.
For `AGAUCUU`, the 7-mer Z-score was -0.331.
For `CGUUGCC`, the 7-mer Z-score was -0.24.
`GUCCGGU` gave a 7-mer Z-score of -0.22.
`UGGUUUG` has a 7-mer Z-score of -0.347.
With `GCUGAGG` the 7-mer Z-score was 0.256.
For `CUCACGG`, the 7-mer Z-score was -0.217.
The 7-mer Z-score of `AAGGGCA` is reported as 0.495.
For `GGAAUUA`, the 7-mer Z-score was -0.0047.
For `AUCUUGC`, the 7-mer Z-score was -0.286.
For `GACAUCU`, the 7-mer Z-score was -0.237.
`UACAACC` gave a 7-mer Z-score of -0.182.
With `UUCUUGC` the 7-mer Z-score was -0.467.
With `UACGUCG` the 7-mer Z-score was -0.391.
The 7-mer Z-score of `AUCGUCU` is reported as -0.391.
With `GACCACG` the 7-mer Z-score was 0.0225.
With `CCGCUCA` the 7-mer Z-score was -0.369.
The 7-mer Z-score of `GUAGCGA` is reported as -0.0264.

Set 3
Target: Interferon regulatory factor 7, full length, phosphomimetic (IRF7, Homo sapiens, UniProt Q92985, residues 1-503, S471D/S472D/S475D/S476D/S477D/S483D/S484D/S487D)
Chain of UniProt Q92985 (whole entry, unmodified, looked up): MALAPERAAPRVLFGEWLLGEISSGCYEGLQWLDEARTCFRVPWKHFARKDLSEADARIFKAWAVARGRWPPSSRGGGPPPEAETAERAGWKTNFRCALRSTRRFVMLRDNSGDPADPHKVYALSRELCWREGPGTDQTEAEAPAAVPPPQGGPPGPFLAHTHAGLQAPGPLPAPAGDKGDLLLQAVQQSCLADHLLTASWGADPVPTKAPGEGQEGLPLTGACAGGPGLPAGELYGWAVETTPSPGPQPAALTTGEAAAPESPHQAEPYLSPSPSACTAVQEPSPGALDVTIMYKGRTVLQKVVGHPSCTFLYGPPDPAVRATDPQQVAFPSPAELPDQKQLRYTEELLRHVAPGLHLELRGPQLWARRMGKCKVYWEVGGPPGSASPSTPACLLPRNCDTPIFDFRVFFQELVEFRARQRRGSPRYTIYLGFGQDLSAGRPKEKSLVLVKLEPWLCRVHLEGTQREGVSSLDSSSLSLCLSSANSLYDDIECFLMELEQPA
Technique: protein-binding microarray
Molecule type: double-stranded DNA, one strand shown
Sample: in vitro
Tested at: 2200 nM top
Notes: 60-bp whole probe
Added: salmon DNA 0.4 mg/ml
Reference: random background probes
Reading: higher = stronger binding
All sequences stand within: GCCTAGCAC … GTCTTGATTCGCTTGACGCTGCTG
`CACGGTTTCGGTTTCGGGACGTGCTAG` — result for “fitted relative affinity”: 15.4 z-score.
For `TCATGAGTCACTTCTGGTACTGTGCTA`, “fitted relative affinity” read 0.543 z-score.
`GACGGTGTCGGGTATCGGGACGTGCTA`: “fitted relative affinity” -0.8 z-score.
Under “fitted relative affinity”, `GACGATATCAGACTGCAGACGTGCTAG` is recorded as 0.342 z-score.
`GACGGACCGCTTATCCTGACGTGCTAG`: “fitted relative affinity” 0.112 z-score.
`CTAGATTTCGGGTATCGATTAGTGCTA`: “fitted relative affinity” 3.17 z-score.
`CTACACATCTCACTCTAATCGTGCTAG`: “fitted relative affinity” 1.72 z-score.
Under “fitted relative affinity”, `TTAGATCTCAGGCTGGATTAGTGCTAG` is recorded as -0.2 z-score.
`GAGACTCTAATATTGAGACTGTGCTAG` — result for “fitted relative affinity”: -0.503 z-score.
`TTTTTGTTGTTTTTTGGTTTGTGCTAG`: “fitted relative affinity” 3.36 z-score.
`AGGCCTCTGGGATCCCAGTCGGTGCTA` — result for “fitted relative affinity”: -0.6 z-score.
For `TTAGGTTTCGACTTACGGTTAGTGCTA`, “fitted relative affinity” read 8.24 z-score.
`GACGGTATAGACTATCGGGACGTGCTA` — result for “fitted relative affinity”: -0.0406 z-score.
`TTAGGGTCCCTTTTCCTTTAGTGCTAG` — result for “fitted relative affinity”: 1.63 z-score.
`TTAGATCTCAGACTGGAGTAGTGCTAG`: “fitted relative affinity” -0.39 z-score.
`TTAGGTATCCTTTTCCTTAAGTGCTAG`: “fitted relative affinity” 1.27 z-score.
`GACGGTTTCCTTTCCCCGACGTGCTAG`: “fitted relative affinity” 5.01 z-score.
`TCAGTTTTCTGGTTCCCACTGTGCTAG` — result for “fitted relative affinity”: 5.52 z-score.
`GACGGTATCGACACTTGGGACGTGCTA` — result for “fitted relative affinity”: -0.00493 z-score.
`TTAGAGCTCAGTCTCGATTAGTGCTAG` — result for “fitted relative affinity”: -0.227 z-score.
For `TTAGAACTGGGTATCGGTTAGTGCTAG`, “fitted relative affinity” read -0.0639 z-score.
For `GACAGACTGGGGTTTCGGGACGTGCTA`, “fitted relative affinity” read 0.899 z-score.
Under “fitted relative affinity”, `TCAATTTTCTAAATGCCACTGTGCTAG` is recorded as 2.26 z-score.
`TTAGGTATCGGTTTCAGTTAGTGCTAG`: “fitted relative affinity” 3.33 z-score.
`GACGGACTGCTTTTCCGGACGTGCTAG` — result for “fitted relative affinity”: 0.457 z-score.

Set 4
Target: Ras GTPase-activating protein-binding protein 1, C-terminal RGG region (G3BP1, Homo sapiens, UniProt Q13283)
Chain of UniProt Q13283 (whole entry, looked up): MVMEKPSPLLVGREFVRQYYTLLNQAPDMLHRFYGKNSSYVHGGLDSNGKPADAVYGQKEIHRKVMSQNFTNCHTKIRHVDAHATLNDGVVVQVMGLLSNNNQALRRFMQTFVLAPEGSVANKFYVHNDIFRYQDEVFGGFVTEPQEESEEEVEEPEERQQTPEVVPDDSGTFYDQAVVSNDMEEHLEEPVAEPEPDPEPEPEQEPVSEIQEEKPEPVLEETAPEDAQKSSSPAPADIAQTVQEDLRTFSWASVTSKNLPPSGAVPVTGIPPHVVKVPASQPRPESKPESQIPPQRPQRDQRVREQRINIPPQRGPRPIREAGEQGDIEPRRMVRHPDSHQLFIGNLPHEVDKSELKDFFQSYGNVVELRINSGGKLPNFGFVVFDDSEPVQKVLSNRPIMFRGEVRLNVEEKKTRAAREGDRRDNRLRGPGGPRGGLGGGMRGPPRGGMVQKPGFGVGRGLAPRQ
Technique: RNA Bind-n-Seq
Molecule type: RNA
Sample: in vitro
Tested at: 1 µM
Notes: whole 134-nt RNA, ends assumed
Added: 150 mM KCl
Reference: input library
Reading: higher = stronger binding
`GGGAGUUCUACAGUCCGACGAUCUGGCCCUGGUGGCAUGCGGGGAGGAAGAGGUGGCCUCAUGGAUCGUGGUGGUCCCGGUGGAAUGUUCAGAGGUGGCCGUGGUGGAAACAGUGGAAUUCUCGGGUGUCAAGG` gave a log2 enrichment of 3.44.
With `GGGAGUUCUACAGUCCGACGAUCUCAAGUCCUGUGCUACACAUCGUAUGUACCGAAUCGGAAAGGGAAAGGGAAAGGGAAAGUAUUAUGUUACGCCGUUCGGAUCUGCACUUCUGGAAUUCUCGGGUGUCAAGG` the log2 enrichment was -1.31.
The log2 enrichment of `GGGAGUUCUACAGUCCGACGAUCUGCUGUUAUCUGGAACUCCUACCUGUCCUGGAAGGCACAUCGGCUCUAAGCCUGCCUCACUCCAUCGUUUCCACCUUGCAGUGAUGCAGCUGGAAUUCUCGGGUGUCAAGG` is reported as -2.
The log2 enrichment of `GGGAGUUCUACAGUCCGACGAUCCCUGUGCUACACAUCGUAUGUACCGAAUCGGGGAAAAAAAGGAAAAAAAGGAAAAAAAGGAAAGUAUUAUGUUACGCCGUUCGGAUCUGCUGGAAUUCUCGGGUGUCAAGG` is reported as -1.72.
For `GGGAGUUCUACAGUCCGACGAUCGUCCUGUGCUACACAUCGUAUGUACCGAAUCGGGGAAAGGGGUUUUUUUGGGGAGGGGAAAGUAUUAUGUUACGCCGUUCGGAUCUGCACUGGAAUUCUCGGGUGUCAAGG`, the log2 enrichment was 2.21.
`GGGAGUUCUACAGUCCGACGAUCCAAGUCCUGUGCUACACAUCGUAUGUACCGAAUCGGUUUGGGGUUUGGGGUUUGGAAAGUAUUAUGUUACGCCGUUCGGAUCUGCACUUCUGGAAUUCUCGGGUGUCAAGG` has a log2 enrichment of -0.741.
The log2 enrichment of `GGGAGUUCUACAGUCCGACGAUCAGUCCUGUGCUACACAUCGUAUGUACCGAAUCAAACCCAAAUUUUUAAACCCCCAAAAAAGUAUUAUGUUACGCCGUUCGGAUCUGCACUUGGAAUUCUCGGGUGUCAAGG` is reported as -0.969.
`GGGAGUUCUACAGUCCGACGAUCCACAGACAACACGCACCCACACUGACACAGAGGGAAGGGGUUGGGAUGGGGACAGGGUGCACAGCAGGGCGGGGUAGGACCCCAGCCCCUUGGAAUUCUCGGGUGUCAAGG` gave a log2 enrichment of -0.251.
`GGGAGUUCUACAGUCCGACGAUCCAAGUCCUGUGCUACACAUCGUAUGUACCGAAUCGGUUUUGGUUUUGGGUUUUGGAAAGUAUUAUGUUACGCCGUUCGGAUCUGCACUUCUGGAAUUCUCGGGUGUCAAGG` has a log2 enrichment of -1.49.
With `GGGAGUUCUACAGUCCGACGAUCCUCAAGUCCUGUGCUACACAUCGUAUGUACCGAAUCGGAAGGGAAGGGGAAGGAAAGUAUUAUGUUACGCCGUUCGGAUCUGCACUUCCAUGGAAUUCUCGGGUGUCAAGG` the log2 enrichment was -1.17.

A few entries again (set 3):
`GACGGTTTCCTTTCCCCGACGTGCTAG`: “fitted relative affinity” 5.01 z-score.
`TCAGTTTTCTGGTTCCCACTGTGCTAG` — result for “fitted relative affinity”: 5.52 z-score.
`GACGGTATCGACACTTGGGACGTGCTA` — result for “fitted relative affinity”: -0.00493 z-score.
`TTAGAGCTCAGTCTCGATTAGTGCTAG` — result for “fitted relative affinity”: -0.227 z-score.
For `TTAGAACTGGGTATCGGTTAGTGCTAG`, “fitted relative affinity” read -0.0639 z-score.
For `GACAGACTGGGGTTTCGGGACGTGCTA`, “fitted relative affinity” read 0.899 z-score.
